Measurements pooled from the literature.
Compare with care: the assays were run in different laboratories. Numbers after ± are the reported error.

CN1C(=O)[C@@H](Cc2ccc(O)c(I)c2)NC(=O)CNC(=O)[C@H](Cc2ccc3ccccc3c2)NC(=O)[C@H](CCCNC(=N)N)NC(=O)[C@H]1CCCNC(=O)c1ccc(CNC(=O)CN2CCN(CC(=O)O)CCN(CC(=O)O)CCN(CC(=O)O)CC2)cc1 [lutetium-177 labelled]
tissue uptake (female CB-17 SCID mouse, Daudi xenograft, blood; intravenous, 6 h, CXCR4 blocking, added: AMD3100 2 mg/kg coinjected): 0.06 ± 0.01 %ID/g

CCCC[C@H](NC(=O)CNC(=O)CNC(=O)CN1CCN(CC(=O)O)CCN(CC(=O)O)CCN(CC(=O)O)CC1)C(=O)N[C@H]1CC(=O)NCCCC[C@@H](C(N)=O)NC(=O)[C@H](Cc2c[nH]c3ccccc23)NC(=O)[C@H](CCCNC(=N)N)NC(=O)[C@@H](Cc2ccccc2)NC(=O)[C@H](Cc2c[nH]cn2)NC1=O [lead-203 labelled]
tissue uptake (C57 mouse, skin; intravenous, 0.056 MBq, 4 h): 0.22 ± 0.17 %ID/g

CC(C)[C@H](NC(=O)[C@@H]1CCCN1C(=O)[C@H](CCCNC(=N)N)NC(=O)[C@H](CS)NC(=O)[C@H](Cc1c[nH]c2ccccc12)NC(=O)[C@H](CCCNC(=N)N)NC(=O)[C@@H](Cc1ccccc1)NC(=O)[C@H](Cc1c[nH]cn1)NC(=O)[C@H](CCC(=O)O)NC(=O)[C@H](CS)NC(=O)[C@H](CS)NC(=O)CNC(=O)[C@@H]1CC(=O)N[C@@H](CCCNC(=N)N)C(=O)NCC(=O)N[C@@H](CC(=O)O)C(=O)N[C@H](Cc2ccc(O)cc2)C(=O)N1)C(N)=O [technetium-99m labelled]
tissue uptake (C57 mouse, female, B16/F1 melanoma, heart; intravenous, 0.037 MBq, 2 h): 0.71 ± 0.1 %ID/g

O=C([O-])CN1CCN(CC(=O)[O-])CCN(CC(=O)NCCc2ccc3c(c2)C2C=CCC2C(c2cc4c(cc2Br)OCO4)N3)CCN(CC(=O)[O-])CC1.[111In+3] (centres unmarked)
tissue uptake (mouse, Hec50 endometrial tumour, liver; 1 h post injection): 12 ± 1.43 %ID/g

CCCC[C@H](NC(=O)CNC(=O)CNC(=O)CN1CCN(CC(=O)O)CCN(CC(=O)O)CCN(CC(=O)O)CC1)C(=O)N[C@H]1CC(=O)NCCCC[C@@H](C(N)=O)NC(=O)[C@H](Cc2c[nH]c3ccccc23)NC(=O)[C@H](CCCNC(=N)N)NC(=O)[C@@H](Cc2ccccc2)NC(=O)[C@H](Cc2c[nH]cn2)NC1=O [copper-64 labelled]
tissue uptake (female C57 mouse, B16/F1 melanoma, bone; intravenous, 0.037 MBq, 24 h): 0.42 ± 0.11 %ID/g

CN(C)c1ccc(-c2nc3ccc(OCCCCCN4CCN5CCN(CC4)CC(=O)[O][Al]([18F])[O]C(=O)C5)cc3s2)cc1
tissue uptake (ICR mouse, bone; intravenous, 2 min): 3.14 ± 0.57 %ID/g

CCCC[C@H](NC(=O)CNC(=O)CNC(=O)CN1CCN(CC(=O)O)CCN(CC(=O)O)CC1)C(=O)N[C@H]1CC(=O)NCCCC[C@@H](C(N)=O)NC(=O)[C@H](Cc2c[nH]c3ccccc23)NC(=O)[C@H](CCCNC(=N)N)NC(=O)[C@@H](Cc2ccccc2)NC(=O)[C@H](Cc2c[nH]cn2)NC1=O [copper-64 labelled]
tissue uptake (C57 mouse female B16/F1 melanoma, intestines; intravenous, 0.037 MBq, 0.5 h): 1.27 ± 0.11 %ID

CC(C)[C@H](NC(=O)[C@@H]1CCCN1C(=O)[C@H](CCCNC(=N)N)NC(=O)[C@H](CS)NC(=O)[C@H](Cc1c[nH]c2ccccc12)NC(=O)[C@H](CCCNC(=N)N)NC(=O)[C@@H](Cc1ccccc1)NC(=O)[C@H](Cc1c[nH]cn1)NC(=O)[C@H](CCC(=O)O)NC(=O)[C@H](CS)NC(=O)[C@H](CS)NC(=O)[C@@H]1CC(=O)N[C@@H](CCCNC(=N)N)C(=O)NCC(=O)N[C@@H](CC(=O)O)C(=O)N[C@H](Cc2ccc(O)cc2)C(=O)N1)C(N)=O [technetium-99m labelled]
tissue uptake (C57 mouse, female, B16/F1 melanoma, lung; intravenous, 0.037 MBq, 2 h): 1.54 ± 0.2 %ID/g
